Published values from different studies.
Compare with care: the assays were run in different laboratories. Several values in a cell are separate wells, animals, samples, runs or records.
Target: cAMP-dependent protein kinase catalytic subunit alpha (PRKACA, Homo sapiens, UniProt P17612)

| Structure (SMILES) | test | system | conditions | how to read | quantity | result |
| --- | --- | --- | --- | --- | --- | --- |
| O=c1c(-c2ccc(Cl)c(CN3CCOCC3)c2)coc2cc(O)ccc12 | enzyme activity, inhibitor | – | 1 µM | – | remaining activity | 95% |
| Cc1ccc(-c2c(/C=C(\C#N)C(=O)NC(C)C)n(CCCO)c3ncnc(N)c23)cc1 | cell-free assay, competition with immobilised ligand | – | 1 µM | – | remaining binding | 100% |
| Cc1cnc2nc1Nc1cccc(c1)COC/C=C/COCc1cc(ccc1OCCN1CCOCC1)N2 | binding, competition with immobilised ligand | – | 0.1 µM | – | remaining binding | 100% |
| COc1ccc(NC(=O)Nc2ccc3c(c2)C(=O)N(C(C)CO)CC(C)C(CN(C)Cc2ccc4c(c2)OCO4)O3)cc1 (stereo not shown) | binding, competition with immobilised ligand | – | 10 µM | – | remaining binding | 69% |
| Nc1ncc(-c2cc(-c3cnn(CC(F)(F)F)c3)ncc2F)nc1C(=O)NC1CNCC(F)C1 (stereo not shown) | enzyme activity | – | 1 µM | baseline: DMSO control | remaining activity | 89.8% |
| COc1ccc(O)cc1-c1c[nH]c2ncc(-c3cncc(C(=O)N(C)C)c3)cc12 | binding, competition with immobilised ligand | – | 0.2 µM | – | inhibition | -5.82% |
| Cc1cccc(-c2ccc3nc(NC(=O)C4CCCCC4)nn3c2)c1 | enzyme activity, Dundee kinase panel | – | 10 µM | – | remaining activity | 87% |
| NC(=O)[C@@H](O)C[C@H]1CCc2sc3ncnc(O[C@H]4CC[C@H](N5CCOCC5)CC4)c3c21 | enzyme activity, inhibitor | – | 10 µM | – | inhibition | 16% |
| CN1CCN(Cc2ccc(-c3ccc(CO[C@H]4CCC[C@@H]4NC(=O)c4cc(-c5cnn(C)c5)cnc4N)cc3)cc2)CC1 | enzyme activity, inhibitor | – | 0.1 µM | – | inhibition | -8% |
| C=CC(=O)N1CCc2ccc(-n3c(=O)ccc4cnc5ccc(-c6cnn(C)c6)cc5c43)cc21 | KINOMEscan | – | 1 µM | baseline: DMSO control | remaining binding | 94% |
| C[C@H]1CN(C(=O)c2cn(-c3ccnc(N)n3)c3cc(C#CC4(O)CCCCC4)ccc23)CCN1 | enzyme activity, inhibitor, FRET | – | 1 µM | – | inhibition | 5% |
| CNC1C[S+]2CC[S+]3CC[S+](C1)[Ru-4]321([N]=C=S)[n]2c3ccc(OC)cc3c3c4c(c5cc(F)c[n+]1c5c32)C(=O)NC4=O (stereo not shown) | KinomeScan | – | 0.1 µM | baseline: untreated | remaining binding | 98% |
| COc1cc(Nc2nc(C)cc(-c3cnn4nc(OC)ccc34)n2)cc(C(F)(F)F)c1 | KINOMEscan | – | 1 µM, PKAC-alpha | baseline: DMSO | remaining binding | 92% |
| CN1CCN(Cc2ccc(NC(=O)c3cccc(C#Cc4cnc(N)c5ncccc45)c3)cc2C(F)(F)F)CC1 | cell-free assay, competition with immobilised ligand | – | 50 nM | – | remaining binding | 87% |
| CCN1CCN(Cc2ccc(C(=O)Nc3ccc(C)c(NCc4cnc5[nH]ccc5c4OC)c3)cc2C(F)(F)F)CC1 | binding, competition with immobilised ligand | – | 1 µM | – | remaining binding | 71% |
| O=C(Cc1ccc(OCc2ccccc2)cc1)NC1(C(=O)O)CCN(C(=O)c2ccc(-c3cccc(Cl)c3)cc2)CC1 | enzyme activity, inhibitor | – | 10 µM | – | activity vs control | 90% |
| COc1cc(-n2cc3cc(F)cc(C(N)=O)c3n2)cc(Cl)c1C1CC(O)(CCO)Cc2ccccc21 (stereo not shown) | enzyme activity, inhibitor | – | 10 µM | – | inhibition | 0.52% |
| COc1c(Cl)cccc1Nc1c(-c2ccncc2C#C[C@@]2(C)CCCN2C(=O)/C=C/CN(C)C)[nH]c2c1C(=O)NCC2 | cell-free assay, competition with immobilised ligand | – | 3 µM | – | remaining binding | 79% |
| Cc1cccc(O[C@H]2CCC[C@@H](C(C)CNCc3ccncc3)C2)c1 (relative stereo) | enzyme activity, inhibitor | – | 1 µM | – | inhibition | -2% |
| C=CC(=O)Nc1cccc(-c2cnc3[nH]cc(C(=O)NC(C)(C)C)c3n2)c1 | kinase activity | – | 0.1 µM | – | inhibition | 3% and 5% |
| Cc1cccc(-c2ccc3nc(NC(=O)C4CCOCC4)nn3c2)c1 | enzyme activity, Dundee kinase panel | – | 10 µM | – | remaining activity | 82% |
| N[C@H]1CC[C@H](Nc2nccc(-c3cccnc3Oc3ccc(NC(=O)NC4CC4)c4ccccc34)n2)CC1 | kinobead competition pulldown | HEK293/HCT116 lysate mixture | 10 µM, 1 h, 4 °C | lower = stronger competition | log2 LFQ intensity | 22.5 and 20.4 and 22.7 and 22.8 |
| C=CC(=O)N1CCCC(n2c(=O)c3ncccc3n(Cc3ccc(Oc4ccccc4)cc3)c2=O)C1 (stereo not shown) | cell-free assay, competition with immobilised ligand | – | 1 µM | – | remaining binding | 94% |
| CNC(=O)C1CCN(c2cc(C)c(F)cc2NC(=O)c2ccc(-c3cc(O)ccc3C)c(C)c2)CC1 | binding, competition with immobilised ligand | – | 1 µM | – | remaining binding | 73% |
| CNS(=O)(=O)Nc1nccc(Cc2c(C)c3ccc(Oc4ncccc4F)cc3oc2=O)c1F | cell-free assay, competition with immobilised ligand | – | 10 µM | – | remaining binding | 94% |

A few entries again:
| Structure (SMILES) | test | system | conditions | how to read | quantity | result |
| --- | --- | --- | --- | --- | --- | --- |
| CCN1CCN(Cc2ccc(C(=O)Nc3ccc(C)c(NCc4cnc5[nH]ccc5c4OC)c3)cc2C(F)(F)F)CC1 | binding, competition with immobilised ligand | – | 1 µM | – | remaining binding | 71% |
| O=C(Cc1ccc(OCc2ccccc2)cc1)NC1(C(=O)O)CCN(C(=O)c2ccc(-c3cccc(Cl)c3)cc2)CC1 | enzyme activity, inhibitor | – | 10 µM | – | activity vs control | 90% |
| COc1cc(-n2cc3cc(F)cc(C(N)=O)c3n2)cc(Cl)c1C1CC(O)(CCO)Cc2ccccc21 (stereo not shown) | enzyme activity, inhibitor | – | 10 µM | – | inhibition | 0.52% |
| COc1c(Cl)cccc1Nc1c(-c2ccncc2C#C[C@@]2(C)CCCN2C(=O)/C=C/CN(C)C)[nH]c2c1C(=O)NCC2 | cell-free assay, competition with immobilised ligand | – | 3 µM | – | remaining binding | 79% |
